Results of several laboratories.
Each numbered part is a random draw from the data of one study; scales do not carry over between parts. Changes are numbered by the printed parent chain. pIC50: −log10 of the molar value.

Block 1 — target: CCNE2, cyclin fold, Cln2 fusion (human); technique: yeast growth competition, sequencing; sample: yeast; setting: strong parent motif; reference: not given; reading: higher = stronger binding; endpoint: normalised enrichment score; starting sequence: viral docking peptide; TSVRRALFTGGSD
Change = F8D; result = 0.249
Change = S12V; result = 3.9
Change = G11P; result = 4.42
Change = R5V; result = 0.312
Change = S2T; result = 4.21
Change = G11L; result = 3.44
Change = T9H; result = 2.54
Change = A6I; result = 4.51

Block 2 — target: vanadate, free oxyanion; technique: microfluidic competitive inhibition; sample: in vitro, cell-free expressed; tested at: not given; reading: lower = stronger binding; endpoint: oxyanion analog dissociation constant
Setting: derived from inhibition constants, unchanged parent 676 nM
Starting sequence: PafA, mature enzyme, eGFP fusion (Elizabethkingia meningoseptica, UniProt Q9KJX5); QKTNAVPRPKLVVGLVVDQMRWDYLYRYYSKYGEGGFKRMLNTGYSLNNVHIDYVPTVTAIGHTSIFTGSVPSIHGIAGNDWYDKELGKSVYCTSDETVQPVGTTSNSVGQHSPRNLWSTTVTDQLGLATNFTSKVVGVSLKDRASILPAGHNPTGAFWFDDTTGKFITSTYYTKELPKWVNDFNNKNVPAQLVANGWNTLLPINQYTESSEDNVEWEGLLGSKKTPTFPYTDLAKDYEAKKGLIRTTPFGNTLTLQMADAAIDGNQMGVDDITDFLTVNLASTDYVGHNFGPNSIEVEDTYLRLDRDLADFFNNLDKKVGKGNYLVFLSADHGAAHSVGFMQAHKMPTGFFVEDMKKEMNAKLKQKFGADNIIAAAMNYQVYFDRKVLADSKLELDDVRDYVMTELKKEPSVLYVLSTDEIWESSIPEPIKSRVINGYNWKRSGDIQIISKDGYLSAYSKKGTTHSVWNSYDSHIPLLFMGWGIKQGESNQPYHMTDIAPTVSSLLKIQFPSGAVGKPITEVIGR
Change = V194A; result = 607 nM
Change = Q343V; result = 764 nM
Change = G103A; result = 634 nM
Change = Q343G; result = 739 nM
Change = L407V; result = 750 nM
Change = V523A; result = 642 nM
Change = I520G; result = 1.77 µM
Change = K10G; result = 758 nM

Block 3 — observed: binding; technique: phage display NGS; form: peptide; tested at: concentration not given; reference: input library; endpoint: enrichment fold change
Target: UDP-N-acetylglucosamine--peptide N-acetylglucosaminyltransferase 110 kDa subunit (OGT, Homo sapiens, UniProt O15294)
UniProt O15294, sequence (whole entry, looked up): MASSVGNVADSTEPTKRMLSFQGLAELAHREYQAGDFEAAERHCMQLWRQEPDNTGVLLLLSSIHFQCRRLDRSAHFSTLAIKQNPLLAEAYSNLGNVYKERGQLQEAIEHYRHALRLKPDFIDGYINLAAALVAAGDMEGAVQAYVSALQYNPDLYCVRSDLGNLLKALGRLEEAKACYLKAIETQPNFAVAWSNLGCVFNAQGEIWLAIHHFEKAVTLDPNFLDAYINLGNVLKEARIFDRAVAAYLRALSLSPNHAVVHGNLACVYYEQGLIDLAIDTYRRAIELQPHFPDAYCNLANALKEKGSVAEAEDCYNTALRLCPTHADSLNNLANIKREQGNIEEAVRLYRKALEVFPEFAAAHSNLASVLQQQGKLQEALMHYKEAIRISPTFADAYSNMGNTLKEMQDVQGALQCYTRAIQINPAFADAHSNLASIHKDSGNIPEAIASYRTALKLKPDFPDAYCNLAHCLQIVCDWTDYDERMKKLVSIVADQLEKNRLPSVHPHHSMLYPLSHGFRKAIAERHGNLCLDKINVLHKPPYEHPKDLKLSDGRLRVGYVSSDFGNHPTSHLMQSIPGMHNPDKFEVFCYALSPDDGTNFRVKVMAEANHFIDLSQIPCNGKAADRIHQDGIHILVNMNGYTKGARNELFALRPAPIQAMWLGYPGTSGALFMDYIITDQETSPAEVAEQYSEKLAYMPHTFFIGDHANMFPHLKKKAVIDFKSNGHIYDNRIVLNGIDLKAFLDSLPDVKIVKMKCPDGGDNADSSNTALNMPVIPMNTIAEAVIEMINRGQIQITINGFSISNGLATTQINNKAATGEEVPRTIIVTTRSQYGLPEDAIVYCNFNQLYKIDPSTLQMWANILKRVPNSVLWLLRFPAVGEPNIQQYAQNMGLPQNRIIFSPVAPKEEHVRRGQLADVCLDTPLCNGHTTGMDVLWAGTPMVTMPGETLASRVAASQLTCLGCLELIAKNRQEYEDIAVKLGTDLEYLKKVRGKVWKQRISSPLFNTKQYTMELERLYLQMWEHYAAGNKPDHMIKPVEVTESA
Molecule = HYHPNHHGSYSLRN; result = 7.08
Molecule = HTAIMNRHQYHMHVN; result = 4.18
Molecule = HVRGHHHIFTQGAD; result = 9.48
Molecule = SINYKLQPKYQIFFP; result = 2.45
Molecule = QWPVIGWHTHATYIH; result = 2.71
Molecule = STYTPFYPIKFWANR; result = 1.66
Molecule = QLFPPVYIMKLDSQ; result = 12.2
Molecule = RFNADHHYHDHHIVA; result = 4.91

Other studies, line by line
SMILES = CNC(=O)c1ccc(-c2cnn3ccc(C(=O)N(C)c4ccc(Cl)c(C(=O)OC)c4)cc23)cc1; target = Androgen receptor (AR, Homo sapiens, UniProt P10275); observed = cell-free assay; endpoint = pIC50; result = < 4.52

Excerpt of the above (block 1):
Change = S12V; result = 3.9
Change = G11P; result = 4.42
Change = R5V; result = 0.312
